Assay results of several laboratories.
Protocols differ between the studies behind these lines. ± gives the spread as reported. Converted amounts (≈) assume the structure as drawn.

Structure (SMILES) | organism | test | system | conditions | scale | quantity | value
Nc1ncnc2c1c(F)cn2[C@@H]1O[C@H](CO)[C@@H](O)[C@H]1O | Trypanosoma congolense | parasite growth, resazurin | – | 72 h | – | EC50 | 450 nM
O=C(Cn1ccc(=O)c2ccccc21)N/N=C/c1cc(Br)c(O)c(Br)c1 | Tobacco mosaic virus | viral infectivity, in vivo plant | – | 100 µg/mL | – | inactivation activity | 0%
CC[C@H](C)CCCCC(=O)N[C@@H](CCN)C(=O)N[C@H](C(=O)N[C@@H](CCN)C(=O)N[C@H]1CCNC(=O)[C@H]([C@@H](C)O)NC(=O)[C@H](CCN)NC(=O)[C@H](CCN)NC(=O)[C@H](CC(C)C)NC(=O)[C@@H](Cc2ccccc2)NC(=O)[C@H](CCN)NC1=O)[C@@H](C)O | lipopolysaccharide | – | C57BL/6 mouse, LPS endotoxemia | intravenous, 5 mg/kg, dosed 2 h after LPS, added: LPS 20 mg/kg intraperitoneal | – | survival | 0%
S=C(NCc1ccccn1)NCc1ccccn1 | Proteus vulgaris | microbial growth, well diffusion | – | 30 µg/mL | – | inhibition zone | 26 mm
CCn1c2ccccc2c2cc(/C=N/NC(=O)Cn3ccc(=O)c4ccccc43)ccc21 | Sclerotinia sclerotiorum | microbial growth | – | 50 µg/mL | – | inhibition | 43.9%
COc1ccccc1-c1n[nH]c2nc(N[C@H]3CC[C@H](NS(=O)(=O)CC(C)C)CC3)ncc12 | Leishmania donovani | parasite growth | – | promastigote | – | EC50 | 6.31 nM
CC[C@H](C)[C@H](NC(=O)[C@H](CO)NC(=O)[C@H](CO)NC(=O)[C@H](Cc1ccccc1)NC(=O)CN)C(=O)N[C@@H](Cc1ccccc1)C(=O)N[C@@H](CCCNC(=N)N)C(=O)NCC(=O)N[C@H](C(=O)N[C@@H](C)C(=O)N[C@@H](CCCCN)C(N)=O)C(C)C | Escherichia coli | – | ATCC 8739 | added: 4 µM FeCl3 | – | MBC | > 128 µM
C[C@@H]1C[C@H](Nc2ccccc2)c2cc(F)ccc2N1C(=O)c1ccc(C#N)cc1 | Aedes albopictus | – | – | 1 µM, 72 h, second-instar larvae | reference: Abbott-corrected control | mortality | 74 ± 4%
CC[C@H](C)[C@H](NC(=O)[C@@H](NC(=O)CN)C(C)C)C(=O)N[C@@H](Cc1ccccc1)C(=O)N[C@@H](CC(N)=O)C(=O)N[C@@H](C)C(=O)N[C@@H](CC(C)C)C(=O)N[C@@H](CCCCN)C(=O)NCC(=O)N[C@H](C(=O)N[C@@H](C)C(=O)N[C@@H](CCCCN)C(=O)N[C@H](C(=O)N[C@H](C(=O)N[C@@H](C)C(=O)N[C@@H](C)C(=O)N[C@@H](CCC(N)=O)C(=O)N[C@@H](CC(C)C)C(=O)N[C@@H](CC(C)C)C(=O)N[C@@H](CCCCN)C(=O)N[C@@H](CCCCN)C(=O)N[C@@H](C)C(=O)N[C@@H](CCCNC(=N)N)C(=O)N[C@H]1CSSC[C@@H](C(=O)O)NC(=O)[C@H](CO)NC(=O)[C@H](CCCCN)NC(=O)[C@H](CC(=O)O)NC(=O)[C@H](CC(C)C)NC(=O)[C@H](CCCCN)NC1=O)C(C)C)[C@@H](C)O)C(C)C | Staphylococcus aureus | – | MRSA NCTC 12493, PBS | – | – | MIC | 2 µM
O=C(Cc1csc2nc(-c3ccc(Br)cc3)cn12)NN=C1CCCC1 | Feline herpesvirus | viral cytopathicity, microscopy | CRFK | – | – | EC50 | > 100 µg/mL
O=C1/C(=N\NC(=S)NN=Cc2cccs2)c2ccccc2N1Cc1ccccc1 | Coxsackievirus B4 | viral replication | HeLa | – | – | EC50 | > 4000 nM
C[C@@H]1C[C@H](Nc2ccccc2)c2cc(F)ccc2N1C(=O)c1ccc(C(F)(F)F)c(F)c1 | Aedes albopictus | – | – | 1 µM, 72 h, second-instar larvae | reference: Abbott-corrected control | mortality | 77 ± 3%
O=[N+]([O-])c1ccc(/C=N/N=C/c2ccc(Br)cc2)o1 | Trypanosoma congolense | – | IL3000, mouse | intraperitoneal, 10 mg/kg daily for 7 days, from day 4 post-infection | – | day of death | 10 days post-infection
COc1ccc(-n2c(SCCCN3CCOCC3)nnc2[C@H](Cc2ccccc2)NC(=O)Cc2c(C)[nH]c3ccccc23)cc1 | HIV-2 | – | MT-4, wild type | – | reference: CC50 over EC50 | selectivity index | 13
C[Se][C@@H]1O[C@H](COC(C)=O)[C@@H](OC(C)=O)[C@H](OC(C)=O)[C@H]1NC(C)=O | Trypanosoma brucei brucei | – | bloodstream form | 5 µM, 24 h, 1 % DMSO | – | viability | 96.4 ± 13.4%
CC[C@@H](C)[C@@H](NC(=O)[C@@H](C)NC(=O)[C@@H](CCCCN)NC(=O)[C@@H](CC(C)C)NC(=O)[C@@H](C)NC(=O)[C@H](NC(=O)[C@@H](Cc1c[nH]cn1)NC(=O)[C@@H](CC(C)C)NC(=O)[C@H](NC(=O)[C@H](NC(=O)[C@@H](CCCCN)NC(=O)[C@@H](CCCCN)NC(=O)[C@@H](C)NC(=O)[C@@H](CO)NC(=O)[C@@H](CCCCN)NC(=O)[C@@H](Cc1ccccc1)NC(=O)[C@H](NC(=O)[C@@H](CCCCN)NC(=O)[C@@H](CC(C)C)NC(=O)[C@@H](Cc1ccccc1)NC(=O)[C@@H](CO)NC(=O)[C@@H](CCCCN)NC(=O)[C@@H](Cc1c[nH]c2ccccc12)NC(=O)[C@@H](CCCCN)NC(C)=O)[C@H](C)O)[C@H](C)O)C(C)C)[C@H](C)O)C(=O)N[C@H](CO)C(=O)N[C@H](CO)C(N)=O | ascomycota fungi | – | – | three species | – | MIC50 geometric mean | 28.6 µg/mL (≈ 9.56 µM)
NNC(=O)/C=C/c1ccc(N)cc1 | Aedes aegypti | larval mortality | – | 72 h, larva | – | LC50 | 115 µg/mL
OC[C@H]1O[C@@H]([Se][Se][C@@H]2O[C@H](CO)[C@@H](O)[C@H](O)[C@H]2O)[C@H](O)[C@@H](O)[C@@H]1O | Trypanosoma brucei | parasite growth, flow cytometry | – | 5 µM, 24 h | – | inhibition | 43%

Structure (SMILES) | organism | test | system | conditions | scale | quantity | value
CC[C@H](C)[C@H](NC(=O)[C@H](CCCCN)NC(=O)[C@H](CCCCN)NC(=O)[C@H](CC(C)C)NC(=O)[C@H](CCCCN)NC(=O)[C@H](CCC(=O)O)NC(=O)[C@H](CCCCN)NC(=O)[C@@H](NC(=O)[C@H](CCCCN)NC(=O)[C@H](CC(N)=O)NC(=O)[C@H](CCCNC(=N)N)NC(=O)[C@H](Cc1ccccc1)NC(=O)[C@H](CCCCN)NC(=O)[C@H](CCCNC(=N)N)NC(=O)[C@H](CC(C)C)NC(=O)[C@H](CCCNC(=N)N)NC(=O)[C@H](CCCCN)NC(=O)[C@H](CCCNC(=N)N)NC(=O)[C@H](CC(C)C)NC(=O)[C@@H](N)CCCNC(=N)N)[C@@H](C)CC)C(=O)NCC(=O)N[C@@H](CCC(N)=O)C(=O)N[C@@H](CCCCN)C(=O)N[C@H](C(=O)N[C@@H](CCC(N)=O)C(=O)NCC(=O)N[C@@H](Cc1ccccc1)C(=O)N[C@H](C(=O)N1CCC[C@H]1C(=O)N[C@@H](CCCCN)C(=O)N[C@@H](CC(C)C)C(=O)N[C@@H](CCC(N)=O)C(=O)N1CCC[C@H]1C(=O)N[C@@H](CO)C(=O)N[C@@H](CCCCN)C(=O)N[C@@H](CCC(N)=O)C(=O)N[C@@H](CO)C(=O)O)C(C)C)[C@@H](C)CC | Streptomyces scabiei | inhibition zone | CGMCC 4.176 | LB agar, overnight | – | lethal concentration | 8.66 µM
N=C(N)c1ccc(/C=C/c2ccc(C(=N)N)cc2O)cc1 | Streptococcus mutans | growth | – | – | – | MIC50 | 179 ± 23 µM
CN(C)CCCNC(=O)[C@@H]1NC(=O)[C@@H]2Cc3ccc(cc3)Oc3cc4cc(c3O)-c3ccc5c(c[nH]c5c3)C[C@@H](NC(=O)C(NC(=O)CCCCCN)c3ccc(O)cc3)C(=O)N[C@H](c3ccc(O)cc3)C(=O)N[C@H]4C(=O)N[C@@H](C(=O)N2C)c2ccc(cc2)Oc2cc1ccc2O (some centres unmarked) | Enterococcus faecium | – | WCC 0506, VRE-A | – | – | MIC | 1 to 2 µg/mL
CS(=O)(=O)c1ccc(/C=N/NC(=O)Cn2ccc(=O)c3ccccc32)cc1 | Tobacco mosaic virus | viral infectivity, in vivo plant | – | 500 µg/mL | – | inactivation activity | 32.7 ± 3.8%
CN[C@@H]1[C@H](O)[C@H](NC)[C@H]2O[C@]3(O)[C@H](O[C@@H]2[C@H]1O)O[C@H](C)C[C@@]3(O)CNCCc1ccc(F)cc1 | Mycobacteroides abscessus | – | ATCC 19977 ∆tap | 120 h | – | MIC | 16 µg/mL
CCCCCCC(CC=CCCCCCCCC(=O)OCCOCn1cnc2c(=O)[nH]c(N)nc21)OC(=O)CCCCC1SCC2NC(=O)NC21 (centres unmarked) | herpes simplex virus 2 | viral replication, plaque reduction | HFF, MS | – | – | EC90 | 11400 nM
Nc1ccn(C[C@@H](CO)OCP(=O)(O)OCCCS(=O)(=O)CCCCCCCCCCCCCC2CCC2)c(=O)n1 | Murid betaherpesvirus 1 | qPCR | MEF, Smith | – | reference: CC50 over EC50 | selectivity index | > 2170
C[C@@H]1C[C@H](Nc2ccccc2)c2cc(F)ccc2N1C(=O)c1ccc(N)cc1 | Aedes albopictus | – | – | 1 µM, 72 h, second-instar larvae | reference: Abbott-corrected control | mortality | 6 ± 6%
OC[C@H]1O[C@@H](O[C@H]2[C@H](O)[C@@H](O)[C@H](SSCc3cccc4c(CSS[C@@H]5O[C@H](CO)[C@@H](O[C@@H]6O[C@H](CO)[C@H](O)[C@H](O)[C@H]6O)[C@H](O)[C@H]5O)cccc34)O[C@@H]2CO)[C@H](O)[C@@H](O)[C@H]1O | Trypanosoma brucei | parasite growth, flow cytometry | – | 5 µM, 24 h | – | viability | 93.5%
C[C@@H]1C[C@H](Nc2ccccc2)c2cc(F)ccc2N1C(=O)c1ccc(C#N)c(F)c1 | Aedes albopictus | – | second-instar larvae | 72 h | – | LC50 | 224 nM
CCC(CC)C(=O)O[C@H]1[C@H](C)[C@H](O)[C@H](C)[C@@H](O)[C@@H](C)/C=C/C=C(/C)C(=O)NC2=C3NC4(CCN(CC(C)C)CC4)N=C3c3c(c(O)c(C)c4c3C(=O)[C@@](C)(O/C=C/[C@H](OC)[C@H]1C)O4)C2=O | Mycobacteroides abscessus | – | ATCC 19977 | – | reference: wild type over arr deletion | MIC ratio | 23.5
CCC(NC(=O)NNS(=O)(=O)c1ccc(C)cc1)(C(F)(F)F)C(F)(F)F | human respiratory syncytial virus | – | HEp-2 | concentration not given | – | antiviral activity | inactive
CC[C@H](C)[C@H](NC(=O)[C@H](CCCNC(=N)N)NC(=O)[C@@H]1CCCN1C(=O)[C@@H](NC(=O)[C@H](CO)NC(=O)[C@H](CCCCN)NC(=O)[C@H](CO)NC(=O)[C@H](CC(C)C)NC(=O)[C@H](CCCCN)NC(=O)[C@H](CC(C)C)NC(=O)[C@H](Cc1ccccc1)NC(=O)[C@H](Cc1ccccc1)NC(=O)CNC(=O)[C@@H]1CCCN1C(=O)[C@@H](NC(=O)[C@H](CCC(=O)O)NC(=O)[C@@H](N)CC(=O)O)[C@@H](C)O)C(C)C)C(N)=O | Aedes aegypti | agonist | pharate pupae | injection, 10 fmol, 9-12 h before ecdysis | – | ecdysis contraction duration | ~10 min
C[C@@](O)(C(F)F)[C@H](NC(=O)c1ccc(C#CC#CC2CC2)cc1)C(=O)NO | Enterobacteriaceae | – | ESBL, carbapenemase positive | – | – | MIC50 | 0.064 µg/mL
Cc1cn(C2CC(N(C)C)C(CO)O2)c(=O)[nH]c1=O (centres unmarked) | HIV-2 | viral cytopathic effect, MTT | MT-4, ROD | – | – | EC50 | > 460 nM
CC[C@H](C)[C@H](NC(=O)[C@H](CCCCN)NC(=O)[C@H](CCCCN)NC(=O)[C@H](CC(C)C)NC(=O)[C@H](CCCCN)NC(=O)[C@H](CCC(=O)O)NC(=O)[C@H](CCCCN)NC(=O)[C@@H](NC(=O)[C@H](CCCCN)NC(=O)[C@H](CC(N)=O)NC(=O)[C@H](CCCNC(=N)N)NC(=O)[C@H](Cc1ccccc1)NC(=O)[C@H](CCCCN)NC(=O)[C@H](CCCNC(=N)N)NC(=O)[C@H](CC(C)C)NC(=O)[C@H](CCCNC(=N)N)NC(=O)[C@H](CCCCN)NC(=O)[C@H](CCCNC(=N)N)NC(=O)[C@H](CC(C)C)NC(=O)CN)[C@@H](C)CC)C(=O)NCC(=O)N[C@@H](CCC(N)=O)C(=O)N[C@@H](CCCCN)C(=O)N[C@H](C(=O)N[C@@H](CCC(N)=O)C(=O)NCC(=O)N[C@@H](Cc1ccccc1)C(=O)N[C@H](C(=O)N1CCC[C@H]1C(=O)N[C@@H](CCCCN)C(=O)N[C@@H](CC(C)C)C(=O)N[C@@H](C)C(=O)N1CCC[C@H]1C(=O)N[C@@H](CCCNC(=N)N)C(=O)N[C@H](C(=O)N[C@@H](CC(=O)O)C(=O)N[C@@H](Cc1ccc(O)cc1)C(=O)O)[C@@H](C)O)C(C)C)[C@@H](C)CC | Streptococcus mutans | inhibition zone | ATCC 1.2499 | LB agar, overnight | – | lethal concentration | 1.67 µM
C[C@@H]1C[C@H](Nc2ccccc2)c2cc(F)ccc2N1C(=O)c1ccc(Cl)c(Cl)c1 | Aedes albopictus | – | – | 1 µM, 72 h, second-instar larvae | reference: Abbott-corrected control | mortality | 75 ± 25%

For quick reference, copied from above:
Structure (SMILES) | organism | test | system | conditions | scale | quantity | value
COc1ccccc1-c1n[nH]c2nc(N[C@H]3CC[C@H](NS(=O)(=O)CC(C)C)CC3)ncc12 | Leishmania donovani | parasite growth | – | promastigote | – | EC50 | 6.31 nM
C[C@@H]1C[C@H](Nc2ccccc2)c2cc(F)ccc2N1C(=O)c1ccc(N)cc1 | Aedes albopictus | – | – | 1 µM, 72 h, second-instar larvae | reference: Abbott-corrected control | mortality | 6 ± 6%
NNC(=O)/C=C/c1ccc(N)cc1 | Aedes aegypti | larval mortality | – | 72 h, larva | – | LC50 | 115 µg/mL
O=C(Cn1ccc(=O)c2ccccc21)N/N=C/c1cc(Br)c(O)c(Br)c1 | Tobacco mosaic virus | viral infectivity, in vivo plant | – | 100 µg/mL | – | inactivation activity | 0%
